Published values of several laboratories.
Numbered parts are unrelated; each lists some results of a single study. Changes are numbered by the printed parent chain.

Set 1
Target: Ras GTPase-activating protein-binding protein 1, full length (G3BP1, Homo sapiens, UniProt Q13283)
UniProt Q13283, sequence (whole entry, looked up): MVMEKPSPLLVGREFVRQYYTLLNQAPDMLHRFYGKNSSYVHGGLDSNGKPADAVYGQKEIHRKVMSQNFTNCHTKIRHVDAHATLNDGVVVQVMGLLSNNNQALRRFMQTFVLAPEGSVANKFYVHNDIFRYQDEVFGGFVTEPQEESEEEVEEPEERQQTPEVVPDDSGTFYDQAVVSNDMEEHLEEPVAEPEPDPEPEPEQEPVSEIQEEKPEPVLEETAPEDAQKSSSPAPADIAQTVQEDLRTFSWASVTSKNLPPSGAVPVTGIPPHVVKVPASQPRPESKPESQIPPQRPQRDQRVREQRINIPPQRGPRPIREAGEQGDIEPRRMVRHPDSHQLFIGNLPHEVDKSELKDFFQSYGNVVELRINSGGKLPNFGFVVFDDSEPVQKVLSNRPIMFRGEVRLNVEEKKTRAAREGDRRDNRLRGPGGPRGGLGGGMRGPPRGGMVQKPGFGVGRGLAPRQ
Method: RNA Bind-n-Seq
Molecule type: RNA
Sample: in vitro
Concentration: 200 nM
Setting: whole 134-nt RNA, ends assumed
With: 150 mM KCl
Baseline: input library
Direction: higher = stronger binding
| Sequence | log2 enrichment |
| --- | --- |
| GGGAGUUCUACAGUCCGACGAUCCAAGUCCUGUGCUACACAUCGUAUGUACCGAAUCGGAGGAAAAAAAGGAAAAAGGAAAGUAUUAUGUUACGCCGUUCGGAUCUGCACUUCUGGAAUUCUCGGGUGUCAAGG | -0.721 |
| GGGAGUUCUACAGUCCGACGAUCAUUAAGGUCACCGUUGCAGGCCUGGCUGGAAAAGACCCAGUACAGUGUAGCCGUGAUGUGGUCAUUUGUCCUGAUGCCAGCCUUGAAGAUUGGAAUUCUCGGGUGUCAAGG | -1.14 |
| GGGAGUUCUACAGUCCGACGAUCUUCCUCAAGUCCUGUGCUACACAUCGUAUGUACCGAAUCGGGUGGUGGUGGAAAGUAUUAUGUUACGCCGUUCGGAUCUGCACUUCCAGCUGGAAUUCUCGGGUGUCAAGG | -0.288 |
| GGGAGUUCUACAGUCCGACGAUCUAACUUUAGAGGAGGAUCUGAUGGAUAUGGCAGUGGACGUGGAUUUGGGGAUCGCUAUAAUGGGUAUGGAGGAGGACCUGGAGGUGGCAAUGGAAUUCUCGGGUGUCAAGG | 0.179 |
| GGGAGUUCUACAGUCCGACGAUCAGUCCUGUGCUACACAUCGUAUGUACCGAAUCGGGGUUUUGGGUUUUGGGUUUUGGGAAAGUAUUAUGUUACGCCGUUCGGAUCUGCACUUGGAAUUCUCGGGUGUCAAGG | -0.147 |
| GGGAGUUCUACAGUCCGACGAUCCACAGACAACACGCACCCACACAGACACAGAGGGAAGGGGGUGGGAUGGGGACAGGGUGCACAGCAGGGCGGGGUAGGACCCCAGCCCCUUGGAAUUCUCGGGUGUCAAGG | 1.66 |
| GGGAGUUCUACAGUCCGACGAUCGUCCUGUGCUACACAUCGUAUGUACCGAAUCAAACCCCCCCAAAUUUUUAAAUUUAAAAAAGUAUUAUGUUACGCCGUUCGGAUCUGCACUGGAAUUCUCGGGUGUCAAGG | 0.261 |
| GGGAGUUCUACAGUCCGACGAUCAAGUCCUGUGCUACACAUCGUAUGUACCGAAUCGGCCCCGGGGCCCCGGGCCCCGGGAAAGUAUUAUGUUACGCCGUUCGGAUCUGCACUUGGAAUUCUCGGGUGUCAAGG | -1.35 |
| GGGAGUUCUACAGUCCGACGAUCUCAAGUCCUGUGCUACACAUCGUAUGUACCGAAUCGGGGAGGGGAGGGGUGGGGAAAGUAUUAUGUUACGCCGUUCGGAUCUGCACUUCCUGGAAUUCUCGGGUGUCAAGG | 1.38 |
| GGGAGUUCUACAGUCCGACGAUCCUCAAGUCCUGUGCUACACAUCGUAUGUACCGAAUCGGAAAGGAGGAAAAAGGAAAGUAUUAUGUUACGCCGUUCGGAUCUGCACUUCCAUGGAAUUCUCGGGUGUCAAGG | -0.356 |

Set 2
Target: RING finger protein unkempt homolog, zinc fingers 1-6, GST-SBP tag (UNK, Homo sapiens, UniProt Q9C0B0, residues 30-357)
Method: RNA Bind-n-Seq
Molecule type: RNA
Sample: in vitro
Concentration: not given
Setting: RNA with constant flanks, human and mouse sites, ends assumed
Baseline: input RNA pool
Direction: higher = stronger binding
Residues (chain): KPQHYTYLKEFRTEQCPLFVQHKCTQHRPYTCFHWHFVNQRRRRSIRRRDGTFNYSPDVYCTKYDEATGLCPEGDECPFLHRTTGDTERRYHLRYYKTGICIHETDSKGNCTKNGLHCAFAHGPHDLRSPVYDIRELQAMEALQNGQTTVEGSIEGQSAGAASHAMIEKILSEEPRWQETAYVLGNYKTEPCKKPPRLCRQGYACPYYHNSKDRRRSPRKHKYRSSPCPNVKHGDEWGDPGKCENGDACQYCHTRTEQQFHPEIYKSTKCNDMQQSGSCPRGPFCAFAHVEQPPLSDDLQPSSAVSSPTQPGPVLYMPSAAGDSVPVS
| Sequence | bound/input enrichment [ratio] |
| --- | --- |
| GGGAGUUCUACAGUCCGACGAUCCAAUUAUAUGAAUAGCAGAAGGUCCAUUUGACUCUUGUAGUUCAAGAGCUGUUUCUAAGUAAACAGACUUUCCAGAGCUCGAUGAAGUGAAGAAGCCCUUCUUUCAAUUCCUGGGCAGAACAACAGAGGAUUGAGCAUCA | 0.141 |
| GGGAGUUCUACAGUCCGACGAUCUGAAGAUUCCAGAUGCUAAACAUGUAUUUACCACAUUUUAUGCUAAAACAAAAUCACUGUUAGUUAAUCCAGUGCUCUUUCCAAACCGUGAAGACUAUAUCCAUCUAAUGGGUUAUGACACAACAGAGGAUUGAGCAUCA | 0.38 |
| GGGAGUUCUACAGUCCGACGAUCACGACAAAGAGGAUUGUGGAGAACGGUCAAGAAAGAGUAGAAGUUGAAGAAGAUGGGCAGUUAAAGUCCUUGACAAUAAAUGGUAAGGAGCACCUGCUACGCUUGGAUAACAAGUAACUCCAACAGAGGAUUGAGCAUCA | 0.292 |
| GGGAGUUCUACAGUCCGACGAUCUCCUUGGAGUUGAUGAUGUUAUGGAAGAGCUUAACUUUUAAAACAUUUAAACAGAGCAUAACCAGGUUUUACAGAGGAGAUACAAAGCAAUUUCUCCAUACCUUCAAAAGCCAUGUCUUCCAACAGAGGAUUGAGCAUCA | 0.128 |
| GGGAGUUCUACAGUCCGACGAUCUACAAGGAAUUGAAGAAUUUGAUUCCUAAGUCAGCAGUGGGCACACUGUCUGGAAACUCUAGUAAUGUGAUCCAGCUAAUCAUCGAUGCCUACAACUCUCUUUCUUCAGAAGUCAUUCUGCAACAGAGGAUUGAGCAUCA | 0.0635 |
| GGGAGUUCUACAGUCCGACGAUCCUUCACACUGGUGAGAAACCCUAUGUGUGUAAUGAAUGUGGAAAGGCCUUUGCGCGUGGCUUACUACUUAUACAACAUCAGAGAAUUCAUACUGGUGAGAAACCAUAUCAAUGUAAGGAACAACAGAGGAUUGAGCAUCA | 0.171 |
| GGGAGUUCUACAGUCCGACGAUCUGUCAGGGUCAUCUCCAGCCUUUAGGGGACAGACCACGCCAGCUCCUUGUUCUCACCUUUUUGCCUUGGAACACAUGAGGAUUGUCAUUGACAAAACAAGCUUUUCAUUUUCAACUCCUGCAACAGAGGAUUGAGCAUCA | 0.139 |

Set 3
Target: ABI1, truncated, D143A, DHFR fusion (Arabidopsis thaliana)
Method: DHFR PCA, deep sequencing
Sample: yeast
Setting: methotrexate growth selection, single substitutions
With: (+)-ABA 0 µM
Baseline: wild-type fitted maximum
Direction: higher = stronger binding
Parent: PYL1, truncated, DHFR fusion (Arabidopsis thaliana); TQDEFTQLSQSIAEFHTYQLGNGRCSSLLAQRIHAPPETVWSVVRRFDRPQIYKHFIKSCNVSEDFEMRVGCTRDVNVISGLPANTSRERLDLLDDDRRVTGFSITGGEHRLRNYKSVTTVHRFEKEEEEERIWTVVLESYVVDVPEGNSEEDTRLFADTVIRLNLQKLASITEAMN; partner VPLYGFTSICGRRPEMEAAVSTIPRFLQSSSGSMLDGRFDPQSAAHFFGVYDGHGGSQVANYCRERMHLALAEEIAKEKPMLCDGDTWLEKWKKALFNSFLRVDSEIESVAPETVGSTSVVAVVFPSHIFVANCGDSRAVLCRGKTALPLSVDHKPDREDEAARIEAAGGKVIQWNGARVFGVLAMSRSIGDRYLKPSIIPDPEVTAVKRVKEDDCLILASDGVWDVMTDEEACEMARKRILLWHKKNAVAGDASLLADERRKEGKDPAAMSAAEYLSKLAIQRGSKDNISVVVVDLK
| Variant | relative binding score [%] |
| --- | --- |
| V137R | 2.01 |
| T86H | 12.2 |
| D144A | 0.0272 |
| T120S | 55.8 |
| A13M | 13 |
| H110S | 43.1 |
| E4I | 37.3 |
| I52G | -2.55 |
| N22W | 3.33 |
| V44K | -0.365 |
| A158D | 3.34 |
| K126G | 47.7 |
| T6M | 33.6 |
| L28W | -4.38 |
| Y141S | 0.111 |
| E125R | 23.6 |
| N114C | 1.26 |
| K116L | -3.86 |

Set 4
Target: Histone acetyltransferase KAT6A, winged helix 1, GST fusion (KAT6A, Homo sapiens, UniProt Q92794, residues 1-85)
Method: protein binding microarray
Molecule type: double-stranded DNA, one strand shown
Sample: in vitro
Concentration: not given
Setting: 8-mer, flanks averaged, mean of 2 arrays, mostly near background
Baseline: not given
Direction: higher = stronger binding
Construct (chain): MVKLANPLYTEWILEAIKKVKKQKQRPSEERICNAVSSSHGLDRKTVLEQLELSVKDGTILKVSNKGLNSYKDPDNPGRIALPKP
| Sequence | E-score |
| --- | --- |
| AGATTTTA | -0.0902 |
| TAACACCA | -0.212 |
| ATACGCGG | 0.348 |
| CCAGCCAC | -0.147 |
| TCCTCACA | -0.168 |
| CCGCTCCA | 0.123 |
| ACAGGGTG | -0.149 |
| AGGGTACA | -0.14 |
| AAAGAAGG | -0.168 |
| GCGTCTCA | 0.183 |
| TCAATGAA | -0.209 |
| GAGACAGA | -0.242 |
| AGATTACG | 0.14 |
| GGGTCGTA | 0.06 |
| CATTGGCG | 0.228 |
| AGGGCAGC | -0.106 |
| GGTAAGAA | -0.0381 |
| GACGATGC | 0.0573 |

For quick reference, copied from above (set 3):
| Variant | relative binding score [%] |
| --- | --- |
| V137R | 2.01 |
| N114C | 1.26 |
| I52G | -2.55 |
